Measurements from different studies.
Each line is one published result; not all experiments were run side by side. pEC50, pIC50: −log10 of the molar value.
PPARG ligand-binding domain: Peroxisome proliferator-activated receptor gamma, ligand-binding domain (PPARG, Homo sapiens, UniProt P37231)
Chain of UniProt P37231 (whole entry, looked up): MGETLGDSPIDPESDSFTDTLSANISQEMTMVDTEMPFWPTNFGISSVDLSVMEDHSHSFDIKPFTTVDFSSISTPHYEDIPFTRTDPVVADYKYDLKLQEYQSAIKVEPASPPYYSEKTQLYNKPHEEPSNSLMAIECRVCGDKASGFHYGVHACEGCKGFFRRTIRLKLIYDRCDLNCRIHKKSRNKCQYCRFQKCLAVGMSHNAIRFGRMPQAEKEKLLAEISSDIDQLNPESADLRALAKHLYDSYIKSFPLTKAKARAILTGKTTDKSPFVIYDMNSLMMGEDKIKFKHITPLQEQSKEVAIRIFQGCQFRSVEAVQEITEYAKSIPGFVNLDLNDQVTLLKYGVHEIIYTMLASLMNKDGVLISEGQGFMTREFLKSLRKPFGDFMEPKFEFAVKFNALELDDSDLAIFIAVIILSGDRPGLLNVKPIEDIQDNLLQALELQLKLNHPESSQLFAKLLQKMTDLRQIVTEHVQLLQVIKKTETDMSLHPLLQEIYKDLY

`C[C@@H]1C(=O)O[C@@H](C)/C=C/C=C\[C@@H](C)[C@@H]2C=C[C@@H]3C[C@@]4(C)O[C@H]4[C@@H](C)[C@H]3[C@@H]2C(=O)C(Cl)(Cl)C1=O` has an MIC of 0.05 µg/mL (Staphylococcus aureus; MRSA clinical isolate; resistant OXA/CLI/ERY).
The MIC of `N=C(N)NCCC[C@@H]1NC(=O)[C@H](CCCNC(=N)N)NC(=O)[C@@H](CCCNC(=N)N)NC(=O)[C@H](C(c2ccccc2)c2ccccc2)NC(=O)[C@H](C(c2ccccc2)c2ccccc2)NC(=O)[C@H](C(c2ccccc2)c2ccccc2)NC(=O)[C@H](CCCNC(=N)N)NC1=O` is reported as 4 µg/mL (Paecilomyces variotii; MYA-3630).
The MIC of `C#CCOc1ccc(CN[C@@]2(C)C[C@H](O[C@H]3[C@H](Oc4c5cc6cc4Oc4ccc(cc4Cl)[C@@H](O)[C@@H](NC(=O)[C@@H](CC(C)C)NC)C(=O)N[C@@H](CC(N)=O)C(=O)N[C@H]6C(=O)N[C@H]4C(=O)N[C@H](C(=O)N[C@H](C(=O)NCC(N)=O)c6cc(O)cc(O)c6-c6cc4ccc6O)[C@H](O)c4ccc(c(Cl)c4)O5)O[C@H](CO)[C@@H](O)[C@@H]3O)O[C@@H](C)[C@H]2O)cc1OC` is reported as 0.25 µg/mL (Staphylococcus simulans; broth microdilution; 22, cation-adjusted Mueller-Hinton broth; 20 to 24 h, 37 °C, 0.002% polysorbate 80).
`Cc1nc(NCCOCCOCCNc2ncc(C(=O)NC3=NN(c4ccc(Cl)c(Cl)c4)CC3)c(C)n2)ncc1C(=O)NC1=NN(c2ccc(Cl)c(Cl)c2)CC1` gave a pEC50 of 6.55 (cell viability; Ba/F3 expressing TEL-ABL, Mus musculus).
For `C=CC(=O)Nc1cccc(Cn2ncc3cnc(Nc4cnn(CCOC)c4)nc32)c1`, “percent of control” read 90% (CSNK1A1 human; binding, KINOMEscan; 100 nM; lower = stronger binding).
For `CN[C@H](CC(C)C)C(=O)N[C@H]1C(=O)N[C@@H](CC(N)=O)C(=O)N[C@H]2C(=O)N[C@H]3C(=O)N[C@H](C(=O)N[C@H](C(=O)N[C@@H](CCCNC(=N)N)C(N)=O)c4cc(O)cc(O)c4-c4cc3ccc4O)[C@H](O)c3ccc(c(Cl)c3)Oc3cc2cc(c3O[C@@H]2O[C@H](CO)[C@@H](O)[C@H](O)[C@H]2O[C@H]2C[C@](C)(NCc3ccc(OCc4cn(CC(=O)N[C@H](C(=O)N[C@@H](CCN)C(=O)N[C@H]5CCNC(=O)[C@H]([C@@H](C)O)NC(=O)[C@H](CCN)NC(=O)[C@H](CCN)NC(=O)[C@H](CC(C)C)NC(=O)[C@@H](CC(C)C)NC(=O)[C@H](CCN)NC5=O)[C@@H](C)O)nn4)c(OC)c3)[C@H](O)[C@H](C)O2)Oc2ccc(cc2Cl)[C@H]1O`, the MIC was no more than 0.008 µg/mL (Staphylococcus simulans; broth microdilution; 22, cation-adjusted Mueller-Hinton broth; 20 to 24 h, 37 °C, 0.002% polysorbate 80).
With `COc1c(NC(=O)c2ccc(NC(=O)[C@H](Cc3c[nH]nn3)NC(=O)c3ccc(NC(=O)/C(C)=C/c4ccc(O)cc4)cc3)cc2)ccc(C(=O)Nc2ccc(C(=O)O)c(O)c2)c1O` the MIC was 0.5 µg/mL (Micrococcus luteus; broth microdilution; DSM 1790).
For `CC1C=CC=CC(C)C2C=CC3CC(C)(O)C(Cl)C(C)C3C2C(=O)C(Cl)(Cl)C(=O)C(C)C(=O)O1` (stereo not shown), the MIC was 0.1 µg/mL (Staphylococcus aureus; MRSA clinical isolate; resistant: OXA,CLI,DOX,ERY,GEN,SXT,TET).
With `COc1c(NC(=O)c2ccc(NC(=O)c3ccc(NC(=O)[C@H](Cc4c[nH]nn4)NC(=O)c4ccc(NC(=O)/C(C)=C/c5ccc(O)cc5)cc4)cc3)c(OC)c2O)ccc(C(=O)O)c1O` the MIC was 0.5 µg/mL (Micrococcus luteus; microbial growth, broth dilution; DSM1790).
`CC[C@H](C)[C@H](NC(=O)[C@H](CCC(N)=O)NC(=O)[C@H](Cc1ccccc1)NC(=O)[C@H](CC(N)=O)NC(=O)[C@H](CCCCN)NC(=O)[C@H](CC(C)C)NC(=O)[C@H](CCCNC(=N)N)NC(=O)[C@H](CCCCN)NC(=O)[C@H](CCCCN)NC(=O)[C@@H](NC(=O)[C@H](CO)NC(=O)[C@H](CCCCN)NC(=O)CNC(=O)[C@H](CC(C)C)NC(=O)[C@H](CCCCN)NC(=O)[C@H](CCCCN)NC(=O)[C@H](CC(C)C)NC(=O)[C@H](CCCCN)NC(=O)[C@H](CCCCN)NC(=O)[C@H](CCCNC(=N)N)NC(=O)[C@H](CC(C)C)NC(=O)CNC(=O)[C@@H](N)CCCNC(=N)N)[C@@H](C)CC)C(=O)NCC(=O)N[C@@H](Cc1ccccc1)C(=O)N[C@@H](CO)C(=O)N[C@H](C(=O)N1CCC[C@H]1C(=O)N[C@@H](Cc1ccccc1)C(=O)N[C@@H](C)C(=O)NCC(=O)O)C(C)C` gave an MIC of 4 µg/mL (Micrococcus luteus; broth microdilution; ATCC 4698; 43 h, 37 °C, cation-adjusted Mueller-Hinton broth).
With `N=C(N)NCCC[C@@H]1NC(=O)[C@H](CCCNC(=N)N)NC(=O)[C@@H](CCCNC(=N)N)NC(=O)[C@@H](CCCNC(=N)N)NC(=O)[C@@H](C(c2ccccc2)c2ccccc2)NC(=O)[C@H](Cc2c[nH]c3ccccc23)NC(=O)[C@@H](C(c2ccccc2)c2ccccc2)NC1=O` the MIC was 8 µg/mL (Paecilomyces variotii; MYA-3630).
`COc1cccc([C@H](C)NC(=O)c2ccc3c(Cc4cccc(OC(C)(C)C(=O)O)c4)c(C)n(C)c3c2)c1` has a pIC50 of 3.71 (PPARG ligand-binding domain; reporter gene, luciferase reporter; HEK293T, Gal4-PPARγ LBD).
For `CC[C@H](C)[C@@H]1NC(=O)[C@@H]([C@@H](C)O)NC(=O)CNC(=O)[C@H](CC(=O)O)NC(=O)CNC(=O)[C@H](CC(=O)O)NC(=O)CNC(=O)[C@H]2CCCCN2C(=O)[C@@H](NC(=O)[C@H](CC(=O)O)NC(=O)/C=C/CCCCCCCCCC(C)C)CNC(=O)[C@@H]2CCCN2C1=O`, the MIC was 4 µg/mL (Staphylococcus simulans; broth microdilution; 22, Mueller-Hinton broth, Mg2+ 10 mg/L; 16 h, 30 °C, with: Ca2+ 1.0 mM).
For `CCCCCCCCCCCCCCCCCCn1cc(CN(CCC(=O)NCCN(CCC(=O)NCCN(CCC(=O)NCCN(C)C)CCC(=O)NCCN(C)C)CCC(=O)NCCN(CCC(=O)NCCN(C)C)CCC(=O)NCCN(C)C)CCC(=O)NCCN(CCC(=O)NCCN(CCC(=O)NCCN(C)C)CCC(=O)NCCN(C)C)CCC(=O)NCCN(CCC(=O)NCCN(C)C)CCC(=O)NCCN(C)C)nn1`, the MIC was 6 µg/mL (Vibrio parahaemolyticus; RIMD 2210633, LB broth; 18 h).
With `Cc1c(CN(C)C(=O)/C=C/c2cnc3c(c2)CC(N)C(=O)N3)oc2ccccc12` (stereo not shown) the MIC was 4 µg/mL (Escherichia coli; microbial growth, broth dilution; BAA2340; clinical isolate).
For `CC[C@H](C)[C@H](N)C(=O)N1CCC[C@H]1C(=O)N[C@@H](Cc1ccccc1)C(=O)N[C@@H](Cc1c[nH]c2ccccc12)C(=O)N[C@@H](CCCNC(=N)N)C(=O)N[C@@H](Cc1c[nH]c2ccccc12)C(=O)N[C@@H](CC(C)C)C(=O)N[C@@H](CC(C)C)C(=O)N[C@@H](CCC(N)=O)C(=O)N[C@@H](CCCNC(=N)N)C(=O)N[C@@H](CC(C)C)C(=O)N1CCC[C@H]1C(=O)NCC(=O)O`, the MIC was 8 µg/mL (Micrococcus luteus; broth microdilution; ATCC 4698; 43 h, 37 °C, cation-adjusted Mueller-Hinton broth).
`CN[C@H](CC(C)C)C(=O)N[C@H]1C(=O)N[C@@H](CC(N)=O)C(=O)N[C@H]2C(=O)N[C@H]3C(=O)N[C@H](C(=O)N[C@H](C(=O)NCc4cn(CCCCC(=O)N[C@H](C(=O)N[C@@H](CCN)C(=O)N[C@H]5CCNC(=O)[C@H]([C@@H](C)O)NC(=O)[C@H](CCN)NC(=O)[C@H](CCN)NC(=O)[C@H](CC(C)C)NC(=O)[C@@H](CC(C)C)NC(=O)[C@H](CCN)NC5=O)[C@@H](C)O)nn4)c4cc(O)cc(O)c4-c4cc3ccc4O)[C@H](O)c3ccc(c(Cl)c3)Oc3cc2cc(c3O[C@@H]2O[C@H](CO)[C@@H](O)[C@H](O)[C@H]2O[C@H]2C[C@](C)(N)[C@H](O)[C@H](C)O2)Oc2ccc(cc2Cl)[C@H]1O` has an MIC of 0.031 µg/mL (Staphylococcus simulans; broth microdilution; 22, cation-adjusted Mueller-Hinton broth; 20 to 24 h, 37 °C, 0.002% polysorbate 80).
Under “log2 fold change”, `COC1CN([C@H]2CC[C@H]([C@@]3(C)Oc4c(Cl)cc(C(=O)NCc5c(SC)cc(C)[nH]c5=O)c(C)c4O3)CC2)C1` is recorded as 2.7 (RNA-seq, measured: FHIP1A; human, whole blood; dose not given, 24 h; baseline: pretreatment baseline).
`Cc1c(Cc2cccc(OC(C)(C)C(=O)O)c2)c2ccc(C(=O)N[C@@H](C)c3cccc(C4CC4)c3)cc2n1C` has a pIC50 of 5.87 (PPARG ligand-binding domain; reporter gene, luciferase reporter; HEK293T, Gal4-PPARγ LBD).
The pIC50 of `CNS(=O)(=O)Nc1nccc(Cc2c(C)c3ccc(Oc4ncccc4F)cc3oc2=O)c1F` is reported as less than 6.00 (786-O; cell viability, CellTiter-Glo; 7 days).
`COC1=CC(c2ccc[nH]2)=NC1=CNC12CC3CC(CC(C3)C1)C2.Cl` has an MIC of 1 µg/mL (Candidozyma auris; broth microdilution; CDC AR Bank #0381; 24 h).
`Cc1ncsc1-c1ccc(C(C)NC(=O)C2CC(O)CN2C(=O)C(NC(=O)CCCCCCCCCCN2CCCC(Nc3ncc(Cl)c(Nc4ccccc4S(=O)(=O)C(C)C)n3)C2)C(C)(C)C)cc1` (stereo not shown) — result for “log2 fold change”: -1.82 (22Rv1; RNA-seq, measured: ZNF773 mRNA; concentration not given; baseline: DMSO).
The MIC of `COc1nc(C(=O)Nc2ccc(C(=O)O)nc2OC)ccc1NC(=O)c1ccc(NC(=O)[C@H](Cc2c[nH]nn2)NC(=O)c2ccc(NC(=O)/C(C)=C/c3ccc(O)cc3)cc2)cc1` is reported as 2 µg/mL (Micrococcus luteus; broth microdilution; DSM 1790).
For `CC(C)C[C@@H]1NC(=O)[C@@H](CC(C)C)NC(=O)[C@H](CCN)NC(=O)[C@@H](NC(=O)[C@H](CCN)NC(=O)[C@@H](N)[C@@H](C)O)CCNC(=O)[C@H]([C@@H](C)O)NC(=O)[C@H](CCN)NC(=O)[C@H](CCN)NC1=O`, the MIC was greater than 138 µM (Staphylococcus simulans; broth microdilution; 22, cation-adjusted Mueller-Hinton broth).
`C=C[C@]1(C)C[C@@H](OC(=O)CSc2ccc(NC(=O)c3ccco3)cc2)[C@]2(C)[C@H](C)CC[C@]3(CCC(=O)[C@H]32)[C@@H](C)[C@@H]1O` has an MIC of 0.00195 µg/mL (Mycoplasma gallisepticum; chicken lung isolates; 40 mg/kg to chickens).
`CCOc1c(NC(=O)c2ccc(NC(=O)c3ccc(NC(=O)[C@H](Cc4c[nH]nn4)NC(=O)c4ccc(NC(=O)/C(C)=C/c5ccc(O)cc5)cc4)cc3)c(OC)c2O)ccc(C(=O)O)c1O` has an MIC of 0.125 µg/mL (Micrococcus luteus; broth microdilution; DSM 1790).
`O=C(NCc1ccccc1)C(CCc1ccccc1)N(CCc1c[nH]cn1)C(=O)c1ccccc1` (racemic) gave an MIC of 128 µM (Micrococcus luteus; DSM 1790).
For `Nc1ncc(-c2cc(-c3cnn(CC(F)(F)F)c3)ncc2F)nc1C(=O)NC1CNCC(F)C1` (stereo not shown), the remaining binding was 78% (AURKC; KINOMEscan; 1 µM; baseline: DMSO control).

For quick reference, copied from above:
Under “log2 fold change”, `COC1CN([C@H]2CC[C@H]([C@@]3(C)Oc4c(Cl)cc(C(=O)NCc5c(SC)cc(C)[nH]c5=O)c(C)c4O3)CC2)C1` is recorded as 2.7 (RNA-seq, measured: FHIP1A; human, whole blood; dose not given, 24 h; baseline: pretreatment baseline).
The MIC of `N=C(N)NCCC[C@@H]1NC(=O)[C@H](CCCNC(=N)N)NC(=O)[C@@H](CCCNC(=N)N)NC(=O)[C@H](C(c2ccccc2)c2ccccc2)NC(=O)[C@H](C(c2ccccc2)c2ccccc2)NC(=O)[C@H](C(c2ccccc2)c2ccccc2)NC(=O)[C@H](CCCNC(=N)N)NC1=O` is reported as 4 µg/mL (Paecilomyces variotii; MYA-3630).
For `CC[C@H](C)[C@H](N)C(=O)N1CCC[C@H]1C(=O)N[C@@H](Cc1ccccc1)C(=O)N[C@@H](Cc1c[nH]c2ccccc12)C(=O)N[C@@H](CCCNC(=N)N)C(=O)N[C@@H](Cc1c[nH]c2ccccc12)C(=O)N[C@@H](CC(C)C)C(=O)N[C@@H](CC(C)C)C(=O)N[C@@H](CCC(N)=O)C(=O)N[C@@H](CCCNC(=N)N)C(=O)N[C@@H](CC(C)C)C(=O)N1CCC[C@H]1C(=O)NCC(=O)O`, the MIC was 8 µg/mL (Micrococcus luteus; broth microdilution; ATCC 4698; 43 h, 37 °C, cation-adjusted Mueller-Hinton broth).
